Values quoted from earlier work as cited in several papers.
± marks the error that the study gave.
Sequence of UniProt P05106 (whole entry, looked up): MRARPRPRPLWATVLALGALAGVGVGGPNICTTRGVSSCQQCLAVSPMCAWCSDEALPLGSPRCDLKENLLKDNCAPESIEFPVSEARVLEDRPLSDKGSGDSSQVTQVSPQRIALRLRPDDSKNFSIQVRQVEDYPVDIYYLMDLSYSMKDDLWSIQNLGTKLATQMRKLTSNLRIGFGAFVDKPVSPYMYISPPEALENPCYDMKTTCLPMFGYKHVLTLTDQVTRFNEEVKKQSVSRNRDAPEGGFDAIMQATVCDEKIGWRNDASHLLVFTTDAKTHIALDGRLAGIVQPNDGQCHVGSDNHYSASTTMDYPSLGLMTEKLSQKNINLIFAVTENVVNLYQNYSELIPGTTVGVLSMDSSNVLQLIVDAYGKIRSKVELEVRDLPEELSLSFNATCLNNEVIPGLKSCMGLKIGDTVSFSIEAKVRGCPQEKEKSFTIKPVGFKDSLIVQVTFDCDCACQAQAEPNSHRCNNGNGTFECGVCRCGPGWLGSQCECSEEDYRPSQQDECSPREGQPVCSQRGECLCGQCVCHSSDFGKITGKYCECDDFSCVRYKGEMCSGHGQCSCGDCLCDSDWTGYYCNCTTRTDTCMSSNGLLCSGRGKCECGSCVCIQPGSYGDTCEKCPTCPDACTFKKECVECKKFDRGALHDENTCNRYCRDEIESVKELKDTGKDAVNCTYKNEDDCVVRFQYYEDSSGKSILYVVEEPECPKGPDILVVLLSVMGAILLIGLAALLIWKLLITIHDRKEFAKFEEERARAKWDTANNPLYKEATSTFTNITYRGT
Sequence of UniProt P06756 (whole entry, looked up): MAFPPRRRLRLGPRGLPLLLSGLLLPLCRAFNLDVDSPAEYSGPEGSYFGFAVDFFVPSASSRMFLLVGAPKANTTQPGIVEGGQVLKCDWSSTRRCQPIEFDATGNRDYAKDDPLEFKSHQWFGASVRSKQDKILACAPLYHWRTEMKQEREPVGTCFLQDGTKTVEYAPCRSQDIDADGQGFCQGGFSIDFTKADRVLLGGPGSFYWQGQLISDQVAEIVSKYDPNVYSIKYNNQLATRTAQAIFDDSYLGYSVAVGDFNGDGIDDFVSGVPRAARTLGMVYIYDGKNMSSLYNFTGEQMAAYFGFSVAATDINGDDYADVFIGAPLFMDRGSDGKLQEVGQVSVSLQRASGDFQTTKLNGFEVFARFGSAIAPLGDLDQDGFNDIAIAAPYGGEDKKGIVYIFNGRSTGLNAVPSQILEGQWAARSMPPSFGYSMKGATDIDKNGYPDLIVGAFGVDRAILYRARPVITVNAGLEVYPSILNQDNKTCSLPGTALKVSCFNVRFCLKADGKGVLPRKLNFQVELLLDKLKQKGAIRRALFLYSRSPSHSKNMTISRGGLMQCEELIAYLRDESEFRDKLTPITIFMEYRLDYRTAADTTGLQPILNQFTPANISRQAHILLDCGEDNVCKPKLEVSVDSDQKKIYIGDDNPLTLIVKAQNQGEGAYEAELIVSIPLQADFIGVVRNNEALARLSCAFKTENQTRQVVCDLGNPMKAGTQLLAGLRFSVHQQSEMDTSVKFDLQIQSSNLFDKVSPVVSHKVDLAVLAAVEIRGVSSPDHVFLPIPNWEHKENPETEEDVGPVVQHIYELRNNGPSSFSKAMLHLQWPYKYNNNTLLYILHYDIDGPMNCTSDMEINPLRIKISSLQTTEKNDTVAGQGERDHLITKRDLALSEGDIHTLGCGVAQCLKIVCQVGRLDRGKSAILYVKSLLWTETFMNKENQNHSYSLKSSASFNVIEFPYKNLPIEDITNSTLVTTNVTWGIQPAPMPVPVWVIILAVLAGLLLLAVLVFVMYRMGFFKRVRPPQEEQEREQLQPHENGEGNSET

The Kd of `RING domain of UHRF1 (Homo sapiens, UniProt Q96T88)` is reported as 75000 nM (UBE2D (UniProt P51668); Kd).
`fluorescein-c(RGDyK)` gave a Kd of 0.5 ± 0.1 nM (Integrin alpha-V/beta-3 (Homo sapiens, UniProt P05106+P06756); binding).
For `trastuzumab Fab`, the Kd was 0.5 nM (HER2).
`calcitonin gene-related peptide` gave a plasma half-life of 6.9 to 26.4 min (radioimmunoassay).
`CC(=O)C1=C(C)N(c2cccc(C(F)(F)F)c2)C(=O)N[C@@H]1c1ccc(C#N)nc1` gave an IC50 of 1 nM (ELANE; cell-based).

For quick reference, copied from above:
`fluorescein-c(RGDyK)` gave a Kd of 0.5 ± 0.1 nM (Integrin alpha-V/beta-3 (Homo sapiens, UniProt P05106+P06756); binding).
